# Measurements pooled from the literature.
# Compare with care: the assays were run in different laboratories. Numbers after ± are the reported error.
Structure (SMILES),cell line,test,conditions,IC50 [µM]
C#CCOC(=O)C(CC)C1CCC(C)C(C(C)C(O)C(C)C(=O)C(CC)C2OC3(C=CC(O)C4(CCC(C)(C5CCC(O)(CC)C(C)O5)O4)O3)C(C)CC2C)O1 (stereo not shown),ALL5,"cell growth or viability, MTT",5 days,5.7
Cc1nc([N+](=O)[O-])c(N2CCNCC2)n1Cc1ccccc1,normal human dental fibroblasts,"cell viability, MTT",72 h,> 500
COC(=O)[C@@H](Cc1cn(Cc2ccc(C#N)cc2)nn1)NC(=O)OCC1c2ccccc2-c2ccccc21,BXPC-3,"cell growth or viability, MTS",72 h,9.16
CC/C(=C(\c1ccc(O)cc1)c1ccc(OCCN(C)CCOCCOCCOCCOCCOC)cc1)c1ccccc1,MCF7 (ER-positive),cell growth,96 h,0.37
N[C@@H](Cc1c[nH]c2ccccc12)C(=O)NC(CC(=O)N[C@@H](Cc1ccccc1)C(=O)O)c1ccc2ccccc2c1 (stereo partly shown),BT-474,"cell growth or viability, ATP luminescence",72 h,> 100
COc1ccc2cc3[n+](cc2c1OCc1cn(Cc2ccc(C#N)cc2)nn1)CCc1cc2c(cc1-3)OCO2,SMMC-7721,"cell growth or viability, MTT",,57.3
O=C(/C=C/c1ccc2c(c1)C(=O)N(CCCc1ccccc1)CC2)NO,GES1,"cell growth, SRB",72 h,0.57 ± 0.23
CC(=O)NCCCN(C)CCCNc1cccc2c1C(=O)c1cccc(NCCCN(C)CCCNC(C)=O)c1C2=O,Ca9-22,"cell growth or viability, CCK-8",48 h,1.1
CCCCCCCCCCCCn1c(-c2cccnc2)nc(-c2ccc(C)cc2)c1-c1ccc(C)cc1,BT-474,"cell growth or viability, SRB",24 h,> 100
O=C1NCCN1CC(O)Cn1c2ccc(F)cc2c2cc(F)ccc21 (stereo not shown),U2OS Per2-dLuc,"Per2 reporter gene, repressor",,≤ 1
Cc1ccc2nc(Cl)c(-c3nc4cc(F)ccc4[nH]3)cc2c1,L02,"cell growth or viability, MTT",48 h,> 100
CCCCCCCCC=CCCCCCCCCn1c(-c2cccnc2)nc(-c2ccc(C)cc2)c1-c1ccc(C)cc1,BT-474,"cell growth or viability, SRB",48 h,> 100
COc1c(O)cc2oc3cc4c(c(O)c3c(=O)c2c1CC=C(C)C)CC(O)O4 (stereo not shown),SMMC-7721,cell growth or viability,48 h,11.9
CC(C)(C)OC(=O)NCC(N)CN.[Cl][Pt][Cl] (stereo not shown),KB 3-1,"cell growth or viability, ATP luminescence",72 h,16.7
CCCC(CCC)C(=O)[O][Pt]1([O]C(=O)C(CCC)CCC)[O]C(=O)C(=O)[O]1.NC1CCCCC1N,five cancer cell lines,cytotoxicity,mean over panel,10.2
CCCn1c(-c2cccnc2)nc(-c2ccc(C)cc2)c1-c1ccc(C)cc1,BT-474,"cell growth or viability, SRB",48 h,72.5
NCCNC(=O)c1ccc2[nH]c(C(=O)c3ccc(O)cc3)nc2c1,NCI-H441,"cell growth or viability, ATP luminescence",72 h,> 300
Cc1cc2nc(-c3cc4ccccc4nc3Cl)[nH]c2cc1C,BEL-7404,"cell growth or viability, MTT",48 h,15.4
CCCC(CCC)C(=O)[O][Pt]([Cl])([Cl])[O]C(=O)C(CCC)CCC.N.N,five cancer cell lines,cytotoxicity,mean over panel,1.4
CO[C@@H]1[C@@H](O[C@@H]2O[C@H](C)[C@@H](O[C@H]3C[C@@](C)(O)[C@@H](OC(=O)Nc4ccc(C(F)(F)F)cc4)[C@H](C)O3)[C@H](N(C)C)[C@H]2O)[C@@H](CC=O)C[C@@H](C)[C@@H](O[C@H]2CC[C@H](N(C)C)[C@@H](C)O2)/C=C/C=C/C[C@@H](C)OC(=O)C[C@H]1O,GES1,"cell growth or viability, CCK-8",72 h,6.64
N#Cc1cccc(-c2ccc(=O)n(Cc3cccc(-c4ncc(OCC5CCN(CCCCCC(=O)Nc6cccc7c6C(=O)N(C6CCC(=O)NC6=O)C7=O)CC5)cn4)c3)n2)c1 (stereo not shown),EBC-1,"cell growth or viability, CCK-8",72 h,0.00805
COC(=O)C[C@H]1Oc2ccccc2C(=O)[C@]1(C)[N+](=O)[O-],human Fibroblast,"cell growth or viability, SRB",96 h,> 100
CCCCCCCCCCCCCCOC(=O)Nc1ccn([C@@H]2O[C@H](CO)[C@@H](O)C2(F)F)c(=O)n1,SU.86.86,"cell growth or viability, MTT",48 h,5.73
COC1CCC(Nc2nc(-c3nccn3C)nc3sc(-c4ccn(C)n4)c(-c4ccccc4)c23)C1 (stereo not shown),MIA PaCa-2 (KRAS G12C),"Western blot, refers to: phospho-Akt","6 h, added: EGF 15 min",~7
CO[C@@H]1[C@@H](O[C@@H]2O[C@H](C)[C@@H](O[C@H]3C[C@@](C)(O)[C@@H](OC(=O)Cc4ccc(C(C)(C)C)cc4)[C@H](C)O3)[C@H](N(C)C)[C@H]2O)[C@@H](CC=O)C[C@@H](C)[C@@H](O[C@H]2CC[C@H](N(C)C)[C@@H](C)O2)/C=C/C=C/C[C@@H](C)OC(=O)C[C@H]1O,GES1,"cell growth or viability, CCK-8",72 h,2.29
CC/C(=C(\c1ccc(O)cc1)c1ccc(OCCN(C)CCOCCOCCOCCOCCOCCOCCOCCN(C)CCOc2ccc(/C(=C(/CC)c3ccccc3)c3ccc(O)cc3)cc2)cc1)c1ccccc1,MCF7 (ER-positive),cell growth,96 h,0.1
CC[C@H](C)[C@H](NC(=O)[C@@H]1CCCN1C(=O)[C@@H](NC(=O)[C@@H]1CCCN1C(=O)[C@H](CCCCN)NC(=O)[C@H](CCCCN)NC(=O)[C@H](CCCCN)NC(=O)[C@@H]1CCCN1C(=O)[C@@H](N)CCSC)[C@@H](C)O)C(=O)N[C@@H](CCC(N)=O)C(=O)N[C@@H](CC(C)C)C(=O)N[C@@H](CC(N)=O)C(=O)N1CCC[C@H]1C(=O)N[C@@H](CCCCNC(=O)CNC(=O)[C@H](CCCCN)NC(=O)[C@H](CCCNC(=N)N)NC(=O)[C@H](Cc1ccccc1)NC(=O)[C@H](CCCNC(=N)N)NC(=O)[C@H](CCCNC(=N)N)NC(=O)[C@H](CCCNC(=N)N)NC(=O)[C@H](CO)NC(=O)[C@H](Cc1ccc(O)cc1)NC(=O)[C@H](CO)NC(=O)[C@H](CC(C)C)NC(=O)[C@H](CCCNC(=N)N)NC(=O)[C@@H](N)CCCNC(=N)N)C(N)=O,HPAEC,"ERK1/2 phosphorylation, inhibitor, Western blot","0.5 h pre-incubation, serum-free medium, added: 1 ng/mL VEGF",15.9
COc1ccc2cc3[n+](cc2c1OCc1cn(Cc2ccc(Cl)cc2)nn1)CCc1cc2c(cc1-3)OCO2,SMMC-7721,"cell growth or viability, MTT",,43.7
N#Cc1cccc(-c2ccc(=O)n(Cc3cccc(-c4ncc(OCC5CCN(CCCCC(=O)Nc6ccc7c(c6)C(=O)N(C6CCC(=O)NC6=O)C7=O)CC5)cn4)c3)n2)c1 (stereo not shown),EBC-1,"cell growth or viability, CCK-8",72 h,0.00398
O=C1CCC(N2C(=O)c3cccc(NCC(=O)N4CCN(c5ccc(Nc6nc(Oc7ccccc7)c7occc7n6)cc5)CC4)c3C2=O)C(=O)N1 (stereo not shown),MM1.S,"cell growth or viability, resazurin",5 days,0.003
COc1c(O)cc2oc3cc(O)c(CC=C(C)C)c(O)c3c(=O)c2c1CC=C(C)C,SMMC-7721,cell growth or viability,48 h,10.3
CC(C)c1ccc(C[C@H](C)C(=O)N[C@@H]2O[C@H](CO)[C@@H](O)[C@H](O)[C@H]2O)cc1,human T-lymphocyte,cell growth or viability,72 h,> 250
N#Cc1cccc(-c2ccc(=O)n(Cc3cccc(-c4ncc(OCC5CCN(CCCC(=O)Nc6cccc7c6C(=O)N(C6CCC(=O)NC6=O)C7=O)CC5)cn4)c3)n2)c1 (stereo not shown),EBC-1,"cell growth or viability, CCK-8",72 h,0.0109
Cc1cc(C)c(N[C](NCc2ccc(N[C](Nc3c(C(C)C)cccc3C(C)C)=[Pd-]([Cl])([Cl])[C]#[N+]c3c(C(C)C)cccc3C(C)C)cc2)=[Au][Cl])c(C)c1,MRC5,cell growth or viability,,> 100
N=C(N)NCCC[C@@H](N)C(=O)N[C@@H](CC(=O)N[C@H](Cc1ccccc1)C(=O)N[C@H](CC(=O)O)C(N)=O)c1ccc2ccccc2c1,BT-474,"cell growth or viability, ATP luminescence",72 h,> 100
C=C[CH2][Pd-]([Cl])[Cl].Cc1cc(C)c(-n2c[n+](-c3c(C)cc(C)cc3C)c3c2-c2cccc4cccc-3c24)c(C)c1,NTERA2,cell growth or viability,"72 h, 3D culture",36
C=CC12COC(=O)C(=C)C1C1OC(=O)C(C)C1C(OC(=O)C(=C)CO)C2 (stereo not shown),JIMT-1,"cell growth or viability, MTT",72 h,2.2
COc1cccc2c1C(=O)c1c(O)c3c(c(O)c1C2=O)CC(O)(C(=O)CO)CC3OC1CC(NC(=O)CCC2=C(C)C(=O)C=C(C(C)C)C2=O)C(O)C(C)O1 (stereo not shown),human dermal fibroblasts,"cytotoxicity, MTT",72 h,~10
Cc1ccc2nc(Cl)c(-c3nc4cc(C)c(C)cc4[nH]3)cc2c1,BEL-7404,"cell growth or viability, MTT",48 h,> 100
Cc1cc(O)cc2c1O[C@](C)(CCC[C@H](C)CCC[C@H](C)CCCC(C)C)CC2,C3PV,"cell growth or viability, MTT",24 h,15.8

# Repeated from above:
Structure (SMILES),cell line,test,conditions,IC50 [µM]
CCCCCCCCCCCCn1c(-c2cccnc2)nc(-c2ccc(C)cc2)c1-c1ccc(C)cc1,BT-474,"cell growth or viability, SRB",24 h,> 100
CCCn1c(-c2cccnc2)nc(-c2ccc(C)cc2)c1-c1ccc(C)cc1,BT-474,"cell growth or viability, SRB",48 h,72.5
